{"data": "Measurements pooled from the literature", "note": "Parts stem from different laboratories: compare values within a part only. Changes are numbered by the printed parent chain.", "sequence of UniProt O95835 (whole entry, looked up)": "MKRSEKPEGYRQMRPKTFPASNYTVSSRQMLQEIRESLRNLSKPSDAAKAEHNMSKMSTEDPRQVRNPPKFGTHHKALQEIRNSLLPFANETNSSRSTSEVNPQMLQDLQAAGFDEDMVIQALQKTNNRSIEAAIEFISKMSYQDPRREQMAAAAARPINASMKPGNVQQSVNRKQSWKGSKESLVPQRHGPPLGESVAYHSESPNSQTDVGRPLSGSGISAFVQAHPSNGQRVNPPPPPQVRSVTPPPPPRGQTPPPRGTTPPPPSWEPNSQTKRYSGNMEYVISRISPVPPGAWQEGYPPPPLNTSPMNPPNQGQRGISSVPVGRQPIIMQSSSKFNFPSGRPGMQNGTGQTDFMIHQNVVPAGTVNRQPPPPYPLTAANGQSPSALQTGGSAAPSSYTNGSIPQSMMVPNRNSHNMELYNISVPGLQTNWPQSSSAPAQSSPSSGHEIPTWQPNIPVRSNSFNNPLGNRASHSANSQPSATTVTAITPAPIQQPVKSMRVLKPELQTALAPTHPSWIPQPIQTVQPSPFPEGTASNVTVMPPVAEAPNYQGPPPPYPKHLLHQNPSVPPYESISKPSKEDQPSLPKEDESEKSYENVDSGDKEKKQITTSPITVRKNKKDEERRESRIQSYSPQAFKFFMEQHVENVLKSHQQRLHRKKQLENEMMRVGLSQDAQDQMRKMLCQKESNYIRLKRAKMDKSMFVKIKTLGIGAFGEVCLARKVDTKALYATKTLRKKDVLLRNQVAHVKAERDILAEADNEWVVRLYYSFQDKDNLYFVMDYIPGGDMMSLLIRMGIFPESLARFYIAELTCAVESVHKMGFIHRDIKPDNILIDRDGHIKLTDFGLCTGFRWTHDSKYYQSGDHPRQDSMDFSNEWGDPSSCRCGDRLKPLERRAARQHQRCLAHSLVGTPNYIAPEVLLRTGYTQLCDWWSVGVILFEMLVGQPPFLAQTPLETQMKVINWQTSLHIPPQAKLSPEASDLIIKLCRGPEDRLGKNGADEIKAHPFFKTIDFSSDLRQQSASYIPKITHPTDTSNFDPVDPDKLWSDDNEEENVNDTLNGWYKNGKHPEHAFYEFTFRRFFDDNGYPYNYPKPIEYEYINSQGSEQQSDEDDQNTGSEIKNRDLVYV", "sequence of UniProt Q9P286 (whole entry, looked up)": "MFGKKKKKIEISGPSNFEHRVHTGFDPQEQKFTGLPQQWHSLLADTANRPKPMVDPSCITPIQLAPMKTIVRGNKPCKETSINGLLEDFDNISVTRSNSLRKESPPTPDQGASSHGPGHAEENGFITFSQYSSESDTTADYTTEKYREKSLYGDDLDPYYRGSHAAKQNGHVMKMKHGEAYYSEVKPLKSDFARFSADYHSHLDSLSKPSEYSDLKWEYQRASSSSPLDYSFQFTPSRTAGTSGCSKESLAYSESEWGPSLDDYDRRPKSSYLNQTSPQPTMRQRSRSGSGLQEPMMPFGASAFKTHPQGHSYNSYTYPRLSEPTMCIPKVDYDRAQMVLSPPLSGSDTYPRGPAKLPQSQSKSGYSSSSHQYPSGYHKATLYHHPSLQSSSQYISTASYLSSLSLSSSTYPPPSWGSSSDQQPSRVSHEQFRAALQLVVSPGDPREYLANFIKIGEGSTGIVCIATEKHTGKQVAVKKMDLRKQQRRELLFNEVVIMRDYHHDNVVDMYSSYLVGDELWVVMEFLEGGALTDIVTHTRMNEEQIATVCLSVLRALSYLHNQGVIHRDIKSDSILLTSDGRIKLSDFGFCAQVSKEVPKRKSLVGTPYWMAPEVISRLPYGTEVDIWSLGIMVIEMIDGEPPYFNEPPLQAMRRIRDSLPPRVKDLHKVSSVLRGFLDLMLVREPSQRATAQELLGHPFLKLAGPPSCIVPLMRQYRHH", "sequence of UniProt P21127 (whole entry, looked up)": "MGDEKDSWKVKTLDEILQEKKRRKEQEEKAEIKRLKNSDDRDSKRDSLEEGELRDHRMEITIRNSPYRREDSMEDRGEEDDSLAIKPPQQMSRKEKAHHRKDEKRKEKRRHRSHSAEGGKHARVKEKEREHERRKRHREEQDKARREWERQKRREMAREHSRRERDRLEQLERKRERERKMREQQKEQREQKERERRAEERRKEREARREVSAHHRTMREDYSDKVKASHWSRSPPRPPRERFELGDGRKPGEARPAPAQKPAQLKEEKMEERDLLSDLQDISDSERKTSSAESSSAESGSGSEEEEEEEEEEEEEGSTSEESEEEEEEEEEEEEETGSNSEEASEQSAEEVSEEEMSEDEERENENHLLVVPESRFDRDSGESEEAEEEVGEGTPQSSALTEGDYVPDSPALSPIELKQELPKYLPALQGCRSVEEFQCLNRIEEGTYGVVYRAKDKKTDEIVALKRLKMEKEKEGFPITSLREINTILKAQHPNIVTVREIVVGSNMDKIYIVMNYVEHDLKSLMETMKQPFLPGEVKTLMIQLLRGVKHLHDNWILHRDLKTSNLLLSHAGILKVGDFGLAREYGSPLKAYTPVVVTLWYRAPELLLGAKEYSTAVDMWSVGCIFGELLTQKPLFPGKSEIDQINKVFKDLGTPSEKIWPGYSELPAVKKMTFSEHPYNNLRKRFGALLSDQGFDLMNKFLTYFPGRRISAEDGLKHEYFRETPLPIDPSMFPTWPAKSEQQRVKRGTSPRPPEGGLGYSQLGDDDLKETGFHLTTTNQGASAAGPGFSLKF"}
{"data": "Sample 1", "target": "Hepatocyte nuclear factor 3-alpha (Foxa1, Mus musculus, UniProt P35582, residues 1-468, full length assumed)", "method": "EMSA with sequencing", "form": "double-stranded DNA, one strand shown", "medium": "in vitro", "concentration": "10 and 20 nM", "setting": "whole designed probe, mean of two concentrations, ends assumed", "relative to": "negative control set to 0", "reading": "higher = stronger binding", "Construct (chain)": "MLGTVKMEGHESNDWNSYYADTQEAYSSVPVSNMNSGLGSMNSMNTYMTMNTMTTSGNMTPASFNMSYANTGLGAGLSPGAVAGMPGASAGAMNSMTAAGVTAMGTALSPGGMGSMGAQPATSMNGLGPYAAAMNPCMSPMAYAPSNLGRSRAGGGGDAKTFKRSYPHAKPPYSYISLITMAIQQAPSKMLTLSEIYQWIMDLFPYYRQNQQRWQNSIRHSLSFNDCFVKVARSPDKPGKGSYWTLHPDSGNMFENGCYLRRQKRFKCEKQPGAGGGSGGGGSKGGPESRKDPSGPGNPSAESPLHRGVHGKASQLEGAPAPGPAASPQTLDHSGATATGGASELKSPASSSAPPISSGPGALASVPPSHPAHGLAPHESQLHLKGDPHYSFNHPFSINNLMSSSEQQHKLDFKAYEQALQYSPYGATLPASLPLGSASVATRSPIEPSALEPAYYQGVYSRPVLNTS"}
{"Strand": "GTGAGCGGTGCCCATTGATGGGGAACGACACCATTTCGAACAAAACAAAACAGTTGCTCCCTTCCCTCTTGTTCCTCCCACTATTGCTGTCATTGCAAGCTCCTAGGAGCTGCCCTGTTATTTACATTGCAGTGGGCAAGACTCTGGGAAGCAGCAGGCAGGGAGGAGGATGGGAAGCAAGAACCCAGCTGGGGCTAAGCAAGGTCCAGCTCATAATATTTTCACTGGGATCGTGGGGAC", "normalised bound fraction": "0.415 ratio"}
{"Strand": "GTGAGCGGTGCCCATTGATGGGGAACAAGAAAAATTATGGCAAAAAAAAAAAGAAAAAAAAAGAAAAAAAAAGATTTCACCTTTCTTTTCCTTCCATGAGACAAGGGGCTAACAACTGTGTCAACATGAAGTTCTCCACTAGAGGGAACTAATTCCACGTCCTCCAATCGTGAGCTTCATCAGGATGTGTCTGAGAACAGTGCTCTCTCCATGTTTAGATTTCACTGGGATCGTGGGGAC", "normalised bound fraction": "0.166 ratio"}
{"Strand": "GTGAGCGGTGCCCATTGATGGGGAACATCTTCCCCCTCTTCCTTGCCCCACCAGCTCACCTTCCCGGGTTATTTGCACAAAGGAAAATAAATAAAGCCGGCATTCGTTAACGCAGTTCTGGCGCAAACTGCTGTTTGCTCTGGATCTAACATGGTCCTTTGGCGAGGCGTGGCTCCGGGAGAGCAAAGCACCGTGTCAGGGCCATGATCCGGGCTCGCCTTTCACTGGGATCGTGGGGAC", "normalised bound fraction": "0.374 ratio"}
{"Strand": "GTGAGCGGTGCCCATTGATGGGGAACGTGAGCCACTGCGCCCAGCCCATAAATCCTTTTATAAGCTTAAAAAAAATTTCTTTTTTCTCTCCTGTATATTACTATGTTTTATATTTTAAGTAATCTAGAATATACCTATGAATACTGTACTCAATTTAAAGTAATCTACCATCAATTGCATTACTTCCAAATTAAATTTAAATGTCAGTTTAATTAATGATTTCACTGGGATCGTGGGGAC", "normalised bound fraction": "-0.0421 ratio"}
{"Strand": "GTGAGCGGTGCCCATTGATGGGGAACGGGGCATTAGCAACAGACTTTCATAGCTAAACCCTACTAGTTACAGAGATTTATTTATTAGTCCACTGGGCTAGAAAAAAAGCCATTCATATGTAAACAGGGAGATAATAAAGGCTATCACATTTATGTGTATACTCAAATGGAGCAATTTTAATTAACGTCTAAGTACCTTTACATATATTATAATTATTGTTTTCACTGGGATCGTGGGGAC", "normalised bound fraction": "0.294 ratio"}
{"Strand": "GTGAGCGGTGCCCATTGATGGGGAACCTTTATTTTTCAGGCCATCCGTTGCACACTGGTAAACTGCACATGTGAATGTTTTCAGCCAGGGAAGATTAACCTGAGGACTTGTGATCAGTGTAATCTTGGCTGGGTGGCACATGGTGAGGAAAATCTGGGCTTTTCTTCCCGTTCTTATTATGTTCATGTTCGTGTGTGTGTGTGTGTGTGTGTGTGTGTGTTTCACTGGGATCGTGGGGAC", "normalised bound fraction": "-0.0501 ratio"}
{"Strand": "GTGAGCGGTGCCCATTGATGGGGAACATTTTATTTGCTACAACAAGCAAGAAGGCTGAGGTTTATTGAGCAATAGCTGGGTTTTGTCAAACTTGCTTAAGGATTGCCTAAGACCAGCAAAATAAACATGATAAAGTTGAAGAATGACCAGTTTTCCACTCTGCTGTGTTTGGAGGCTGACGAAACTGTCATTGACAAAATTGCCCTGATGGGACTGTTTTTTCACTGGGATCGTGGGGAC", "normalised bound fraction": "0.234 ratio"}
{"Strand": "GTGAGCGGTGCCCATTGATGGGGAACTTATTTTAATGCATGCATTAATTCTCCTTTTCATCTCACTGCCTGCCAGAAAATTGGTTGTACAAGCGTTCAAGGCATTTTCCCTGGACCAGATATTTACACAGGAGTACTGTGTTGACATTATGTGGCTTCGGATTTCAGCGGGCAGGCTGATGCCTCTTGGGACATGTAAGTGCAGAAGGCAAGGCCTGCCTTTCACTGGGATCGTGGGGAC", "normalised bound fraction": "0.39 ratio"}
{"data": "Sample 2", "target": "Serine/threonine-protein kinase haspin (HASPIN, Homo sapiens, UniProt Q8TF76)", "observed": "enzyme activity", "mode": "inhibitor", "concentration": "0.5 µM", "relative to": "control", "sequence of UniProt Q8TF76 (whole entry, looked up)": "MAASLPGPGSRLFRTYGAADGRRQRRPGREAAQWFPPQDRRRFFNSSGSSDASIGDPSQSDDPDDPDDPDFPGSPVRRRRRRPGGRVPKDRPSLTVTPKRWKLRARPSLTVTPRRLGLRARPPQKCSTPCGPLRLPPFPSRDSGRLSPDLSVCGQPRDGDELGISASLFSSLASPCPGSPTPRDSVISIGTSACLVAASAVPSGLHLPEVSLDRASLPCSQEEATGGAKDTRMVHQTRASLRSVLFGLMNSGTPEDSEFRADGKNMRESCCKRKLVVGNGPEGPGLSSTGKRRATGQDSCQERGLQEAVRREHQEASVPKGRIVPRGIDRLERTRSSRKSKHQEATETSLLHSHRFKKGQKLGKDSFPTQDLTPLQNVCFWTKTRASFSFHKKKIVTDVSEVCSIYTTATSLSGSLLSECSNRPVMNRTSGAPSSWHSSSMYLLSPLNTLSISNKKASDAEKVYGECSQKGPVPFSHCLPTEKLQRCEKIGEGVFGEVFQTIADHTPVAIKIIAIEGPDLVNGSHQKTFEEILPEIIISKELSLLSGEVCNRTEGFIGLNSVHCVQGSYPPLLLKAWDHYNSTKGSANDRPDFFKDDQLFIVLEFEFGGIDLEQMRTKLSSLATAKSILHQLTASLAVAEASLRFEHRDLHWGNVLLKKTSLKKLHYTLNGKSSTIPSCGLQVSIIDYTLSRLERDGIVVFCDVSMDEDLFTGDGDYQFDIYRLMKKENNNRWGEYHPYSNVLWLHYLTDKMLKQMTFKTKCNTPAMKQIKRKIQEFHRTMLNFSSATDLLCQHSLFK"}
{"Compound": "CN(C)c1ccc(C=C2C(=O)Nc3ccccc32)cc1", "remaining activity [%]": 88.5}
{"Compound": "O=C(Nc1cccc(Nc2cc(Nc3cccc(C(F)(F)F)c3)ncn2)c1)C1CC1", "remaining activity [%]": 96.4}
{"Compound": "COc1ccc(OC)c2c(=S)c3ccccc3[nH]c12", "remaining activity [%]": 89.2}
{"Compound": "Cn1sc(=O)n(Cc2ccccc2)c1=O", "remaining activity [%]": 99}
{"Compound": "O=C1NC(=O)C(c2cn(CCCn3ccnc3)c3ccccc23)=C1Nc1ccccc1", "remaining activity [%]": 95.8}
{"Compound": "Cn1c2ccccc2c2c3c(c4c5ccccc5n(CCC#N)c4c21)CNC3=O", "remaining activity [%]": 27.2}
{"Compound": "COc1cc2ncnc(Nc3ccc(Oc4ccccc4)cc3)c2cc1OC", "remaining activity [%]": 92}
{"Compound": "O=C1NC(=O)C(c2cn(CCCO)c3ncccc23)=C1c1cnccn1", "remaining activity [%]": 91.9}
{"Compound": "O=S(=O)(c1cccc2cnccc12)N1CCCNCC1", "remaining activity [%]": 86.6}
{"Compound": "OCC(O)CCON=C1C(c2c(O)[nH]c3ccccc23)=Nc2ccccc21 (centres unmarked)", "remaining activity [%]": 32.8}
{"Compound": "Nc1[nH]nc2nc3ccccc3nc12", "remaining activity [%]": 82.1}
{"Compound": "N#CC(C#N)=C(N)/C(C#N)=C/c1ccc(O)cc1", "remaining activity [%]": 90.1}
{"Compound": "COc1ccc(CNC(=O)Nc2ncc([N+](=O)[O-])s2)cc1", "remaining activity [%]": 90}
{"Compound": "CNC(=O)c1cc(Oc2ccc(NC(=O)Nc3ccc(Cl)c(C(F)(F)F)c3)cc2)ccn1", "remaining activity [%]": 99.3}
{"data": "Sample 3", "Structure (SMILES)": "CC(C)(O)c1cncc(-c2nc3ccc(F)cc3n2C2CC2)c1", "observed": "cell-free assay", "method": "competition with immobilised ligand", "concentration": "1 µM"}
{"target": "PAK5 (Homo sapiens, UniProt Q9P286)", "remaining binding [%]": 100}
{"target": "LATS1 (Homo sapiens, UniProt O95835)", "remaining binding [%]": 82}
{"target": "CDK11B (Homo sapiens, UniProt P21127)", "remaining binding [%]": 100}
{"target": "Tyrosine-protein kinase ABL1, non-phosphorylated (ABL1, Homo sapiens, UniProt P00519, T315I)", "remaining binding [%]": 100}
{"target": "MAP3K5 (Homo sapiens, UniProt Q99683)", "remaining binding [%]": 100}
{"data": "Sample 4", "target": "ABI1, truncated, D143A, DHFR fusion (Arabidopsis thaliana)", "method": "DHFR PCA, deep sequencing", "medium": "yeast", "setting": "methotrexate growth selection, single substitutions", "with": "(+)-ABA 58 µM", "relative to": "wild-type fitted maximum", "reading": "higher = stronger binding", "parent": "PYL1, truncated, DHFR fusion (Arabidopsis thaliana); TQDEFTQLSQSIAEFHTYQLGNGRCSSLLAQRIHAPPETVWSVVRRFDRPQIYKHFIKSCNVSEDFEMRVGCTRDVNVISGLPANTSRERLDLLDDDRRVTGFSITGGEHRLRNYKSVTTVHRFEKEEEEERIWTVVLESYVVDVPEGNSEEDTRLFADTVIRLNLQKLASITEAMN; partner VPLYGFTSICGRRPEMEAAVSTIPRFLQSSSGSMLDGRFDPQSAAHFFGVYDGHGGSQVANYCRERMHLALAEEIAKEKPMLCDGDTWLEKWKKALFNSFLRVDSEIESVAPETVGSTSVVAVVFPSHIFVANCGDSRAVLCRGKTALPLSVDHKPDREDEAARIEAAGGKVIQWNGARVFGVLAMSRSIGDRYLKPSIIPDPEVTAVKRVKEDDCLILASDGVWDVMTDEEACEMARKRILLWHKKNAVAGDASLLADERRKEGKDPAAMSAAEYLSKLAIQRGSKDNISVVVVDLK"}
{"Substitution": "E152M", "relative binding score [%]": 77.7}
{"Substitution": "V145F", "relative binding score [%]": 11.6}
{"Substitution": "E128R", "relative binding score [%]": 87.6}
{"Substitution": "A35N", "relative binding score [%]": 1.12}
{"Substitution": "T1V", "relative binding score [%]": 91.9}
{"Substitution": "Y115N", "relative binding score [%]": -0.464}
{"Substitution": "A170W", "relative binding score [%]": 0.457}
{"Substitution": "S150F", "relative binding score [%]": 27.8}
{"note": "Some of these lines once more (sample 2):"}
{"Compound": "Cn1c2ccccc2c2c3c(c4c5ccccc5n(CCC#N)c4c21)CNC3=O", "remaining activity [%]": 27.2}
{"Compound": "COc1cc2ncnc(Nc3ccc(Oc4ccccc4)cc3)c2cc1OC", "remaining activity [%]": 92}
{"Compound": "O=C1NC(=O)C(c2cn(CCCO)c3ncccc23)=C1c1cnccn1", "remaining activity [%]": 91.9}
{"Compound": "O=S(=O)(c1cccc2cnccc12)N1CCCNCC1", "remaining activity [%]": 86.6}
